Experimental data collected from several papers.
Every numbered part comes from another study and shows a few of its results, in no order.

Study 1
Target: Interferon regulatory factor 7, full length, phosphomimetic (IRF7, Homo sapiens, UniProt Q92985, residues 1-503, S471D/S472D/S475D/S476D/S477D/S483D/S484D/S487D)
Method: protein-binding microarray
Form: double-stranded DNA, one strand shown
Medium: in vitro
Concentration: 2200 nM top
Setting: 60-bp whole probe
Together with: salmon DNA 0.4 mg/ml
Relative to: random background probes
Direction: higher = stronger binding
Measurement: fitted relative affinity
All sequences stand within: GCCTAGCAC … GTCTTGATTCGCTTGACGCTGCTG
Target sequence (chain): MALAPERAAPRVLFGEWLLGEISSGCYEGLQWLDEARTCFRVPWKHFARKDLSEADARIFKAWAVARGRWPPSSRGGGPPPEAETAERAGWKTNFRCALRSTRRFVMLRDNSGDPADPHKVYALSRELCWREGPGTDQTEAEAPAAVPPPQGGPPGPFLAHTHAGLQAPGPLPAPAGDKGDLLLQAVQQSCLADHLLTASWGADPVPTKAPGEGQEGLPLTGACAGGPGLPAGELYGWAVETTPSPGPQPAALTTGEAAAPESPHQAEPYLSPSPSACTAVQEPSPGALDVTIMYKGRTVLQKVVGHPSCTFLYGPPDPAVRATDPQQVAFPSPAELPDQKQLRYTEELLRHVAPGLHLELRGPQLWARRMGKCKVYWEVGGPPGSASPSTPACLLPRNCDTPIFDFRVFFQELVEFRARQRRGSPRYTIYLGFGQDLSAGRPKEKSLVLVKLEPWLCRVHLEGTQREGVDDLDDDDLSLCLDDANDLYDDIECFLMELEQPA
TTAGGTTTCGGGAGTGGGTTAGTGCTA: 2.37 z-score
TTAGTACTGAGTCTCGATTAGTGCTAG: 0.293 z-score
GACGGTTTCTTTCTCCTGACGTGCTAG: 2.83 z-score
GACGGTCTCCTTTTCCTTACGTGCTAG: 1.83 z-score
TTAGATAGCAGTCTCGATTAGTGCTAG: -0.306 z-score
GCCGGACTGCTACTGCTGACGTGCTAG: -0.326 z-score
TTAGGTTTCGAGACTGGGTTAGTGCTA: 2.83 z-score
TGAGGTTTCGACACTGGGTTAGTGCTA: 1.85 z-score
TACGGTTTCGGTCTCGGGACGTGCTAG: 6.7 z-score
TTAGATTTCCGTCTCGATTAGTGCTAG: 1.3 z-score
GACGGACTGGGGACTGTGGACGTGCTA: -0.847 z-score
TTAGGTATCGACACTGAGTTAGTGCTA: -0.194 z-score
TTGGGTATCGACTTTCGGTTAGTGCTA: 6.04 z-score
GACGGACTGCTTTTCCTGATGTGCTAG: 0.538 z-score
GACGTACTGGGGTTTCGGGACGTGCTA: 1.17 z-score
GACGGACTGCTTTTTCTGACGTGCTAG: 0.581 z-score
TCAAGAAAGAAAACGGGGAGGTGCTAG: -1.03 z-score
GTCGATTTCAGTTTCGAGACGTGCTAG: 6.05 z-score
TTAGGACTGCTACTGGTTTAGTGCTAG: 0.144 z-score
GGCGAACTGAGTCTCGAGACGTGCTAG: -0.215 z-score
TTAGGTATCGGTGTCGGTTAGTGCTAG: 0.65 z-score
TCATTTTTCTTTTATTAACTGTGCTAG: 4.33 z-score
TTAGGTATCGATTATCGGTTAGTGCTA: 0.832 z-score
TTCGATATCGGGTTTCGATTAGTGCTA: 3.26 z-score
GACGATTTCAGTTCCGAGACGTGCTAG: 1.81 z-score

Study 2
Target: RNA binding protein fox-1 homolog 2, RRM domain, GST-SBP tag (RBFOX2, Homo sapiens, UniProt O43251-10, residues 100-194)
Method: RNA Bind-n-Seq
Form: RNA
Medium: in vitro
Concentration: 365 nM
Setting: natural RNA segment, single round, ends assumed
Relative to: no-protein control
Direction: higher = stronger binding
Measurement: RBNS enrichment (R)
All sequences stand within: GGGAGUUCUACAGUCCGACGAUC … UGGAAUUCUCGGGUGCCAA
Target sequence (chain): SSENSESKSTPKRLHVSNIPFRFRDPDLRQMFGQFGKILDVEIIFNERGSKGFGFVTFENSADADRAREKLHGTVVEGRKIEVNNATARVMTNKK
UUUCUAUGUAUAAUGUUUUAUACACUUUUUAACUGGUUGCACUACCCAUGAGGAAUUCGUGGAAUGGCUACUGCUGACUAACAUGAUGCACAUAACCAAAUGGGGGCCAA: 0.516
GGCAACCCCAGCCCACUGGACAGAGUCCUCAUGGAAAUGCCUGGGAAGCUGAUUUCAUCUAAGGAUGGGUUGAAGUAGGAUGUGCUCCUGCGACUUCUCAGGCAGGUGAG: 0.258
GGGGGCAUAAACUUUAUUCCACUGGAGAAGCCCUGGGGGUGGCUGGAGCCAGCCUGCUGAGAAGCGUGGUGCAGCUGGGUCUGGGACUUCACUAGAGCUUACUCUGGAGC: 0.565
CAGGAACUGCAUGCCUGCCUCUACCUUUCCCCACCUGAUACACACAGCUCCUGCUGUGACUGAGGGACGGGGUGUAUCUGGCCUACCCUAGUUGUUGCAGAAUCCUUCCC: 2.58
CUGGCCCCCAGCCCCCAGCAAGCCUGAGCCCGGGAAGAACCAGAGGCCCUCCCGAGAGACCCAGUCACACGUCUCUGCUUUAAGCCUUAGCCAGCUAGUGACGAGUACAA: 0.335
GUUUUAUUUUUAUCCACUGUUUUGUUGUUGUUUUUUUAUAUUUUCUACAUAUCACGUGUGAGACAACUUCUUUCACAUCUCCAUAGUGCCCAGCAAAUUUGAGGCCUAUG: 1.05
CUGCCGGGGAGGAGGGGCUCCUGGGCCUGCUUCCUCCAGGCGCUCUAGAUGCACAAUCCAAUACAGUGGCCUCGUGUGGCUGUAUAACUCGGUUCACUUCAGACUACGUG: 0.348
GCAGACCCCAGGACUGCUGGCAGAUUAGUUGCCUGCCAGGAGGAAUUACUUUCCUUGAUCAAAAAAAUUAACACUGGGGAAGGCUGGAAUCACUUGAGGGGACUAUAAUG: 0.425
CCACUGCAUUCUUUGGCUAAGGCCUGAAUGCUUGCUCAUCUGUAAGAUCUAUACUCGAGGUUUUGUUUUCCUUUUAAAAUUCUUUAGGGAGAGAGGGAUGGUUUCUGAGG: 0.494

Study 3
Target: Sal-like protein 4, full length isoform B (SALL4, Homo sapiens, UniProt Q9UJQ4-2, residues 1-616)
Method: universal PBM
Form: double-stranded DNA, one strand shown
Medium: in vitro
Concentration: not given
Setting: 8-mer, flanks averaged, mean of replicates
Direction: higher = stronger binding
Measurement: E-score
ATGTGGGC: -0.0929
ATGTACAA: 0.275
ACCCCGGG: -0.321
GTTAACTA: 0.199
AGTTCAAT: 0.0435
CTTCCCGA: -0.145
GGCGTACC: -0.245
CGGGGTCC: -0.361
AGCGCGCC: -0.343
AACAGCGA: -0.152
AGGGTCGG: -0.251
TCCAGTAA: -0.0212
CGATTACG: -0.0538
AGAGGATG: -0.116
CGACCGCG: -0.296
AGCTGGGC: -0.277

Study 4
Target: RING finger protein unkempt homolog, zinc fingers 1-6, GST-SBP tag (UNK, Homo sapiens, UniProt Q9C0B0, residues 30-357)
UniProt Q9C0B0, sequence (30-357, looked up): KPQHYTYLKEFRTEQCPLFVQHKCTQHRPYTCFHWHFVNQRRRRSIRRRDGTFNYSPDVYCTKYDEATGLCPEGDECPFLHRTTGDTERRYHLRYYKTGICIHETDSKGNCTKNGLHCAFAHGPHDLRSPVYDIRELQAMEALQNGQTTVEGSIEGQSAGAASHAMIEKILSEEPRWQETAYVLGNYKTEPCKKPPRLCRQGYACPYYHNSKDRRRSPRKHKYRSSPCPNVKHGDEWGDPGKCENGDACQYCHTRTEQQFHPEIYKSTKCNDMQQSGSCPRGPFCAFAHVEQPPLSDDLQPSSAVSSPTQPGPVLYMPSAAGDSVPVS
Method: RNA Bind-n-Seq
Form: RNA
Medium: in vitro
Concentration: not given
Setting: RNA with constant flanks, human and mouse sites, ends assumed
Relative to: input RNA pool
Direction: higher = stronger binding
Measurement: bound/input enrichment
All sequences stand within: GGGAGUUCUACAGUCCGACGAUC … CAACAGAGGAUUGAGCAUCA
UGGGUUACUCCUAUUAUUAUCAAGUAGCUGGAAUUGUGAAGGUCGGAGUAGUUAGAUCUUUAGCUUUUAUUCCUUAUUUUUUUGUAUUACUCUCCAUGUGUAUAAAUUAUUGAUCAUGUU: 82.5 ratio
UUGUGCAGACGGCGAAGCAGCUCCAUCUCAGAAUACAGAAAGCUACGGAGUCCCUGAAGAGCUUUAGACCUGCAGCCCAGGCUUCUUUUGAAGACUAUGUUGUUAACAUAUCGAAACAAA: 0.218 ratio
CGGGAACUCAAACAUCUGAAUCAUCUUGAUAUCUCAGAUGAUAAACAGUUUACAUCAGACAUAGCUCUUCGCUUACUAGAACAAAAAGACAUCCUACCUAACCUUGUUUCUCUGGAUGUU: 0.543 ratio
UUCCCACAUCCGUCCUCCCCCUUCCCAGGCCCGGAGUUCCAGACCUUUUGGUCUCCUUUCGUGGUCGUUCCUGGGUCCUUGCCCCCUUUCCCCACUUUGGAGUUCCAGAUUGCAAACCCA: 0.503 ratio
UAGGUCACAGUGACAGGUUUCUGAGUUGUUUCCCUUUUCAAGUCUCUGGGAGGCCAGUGGCAGCAGCAGGUCUGUGUUUCACCUUCUUCCCAUGUGAGCUUGGAAAACUUUGGCAUCUUA: 0.323 ratio
UAUAAUCUGCCAGGCUAUGUGACAGUAGGAAGGAAUGGUUUCCCCUAACAAGCCCAAUGCACUGGUCUGACUUUAUAAAUUAUUUAAUAAAAUGAACUAUUAUCAAAUAAAACGUAUGAA: 0.968 ratio
UCUGAUCUCAAUGUGCCUGAGCAGCUGUAUCAGUACAUGGUUGGAGGCCAUAGGCGAUUUCAAACUGGAAUGCACAGGGAGAAACAUAAGUCUCCAAGUUAUCAGAUCAAAGAAGGAGAC: 0.141 ratio
UUUGCAAAUUAUAUUGCCAGAGACACACGUCGUCUUGGUGCAACAAUACUAGACCGUAUACAUAGUCUUCAAAUUAAUAGCAGUUUGAGCACCUACUCUCUCGUAGACUCUGUUGGAAAU: 8.56 ratio
AACAAGCUCGGUGUCACCAAUGCCAGCCUAGUCCUUUUCAGACCCGGGUCGGUGAGAGGAAUCAACGGAUCCGUCAGUCUGGCCGUACCACUGUGGCUGCUGGCAGCGUCCCUGUUCUGC: 0.124 ratio
AAGCUUACAGCCUCAGUGGCGAAAAUUUUUUCAUGUCAGAGACCGAGAACUCUUGCAGUCGUUUAUGUCAUCCCUUCUUCUCCAGACAGAAGAUACCAAAAAGUUGCAAUCAAAGAUCUC: 0.146 ratio
CUAAAAAAGAGAAUAACAUGAAAACGCCCAGGGUUACUUGAAUGUUUUUAUAAGAUAGGAAUAUAUGUCUUCACCAUGGGGGGGGUCUCGAUUUCACUAACGUUGUAUAUGAAAAUGUCU: 0.642 ratio

For quick reference, copied from above (study 1):
TTAGATTTCCGTCTCGATTAGTGCTAG: 1.3 z-score
TTAGGTATCGGTGTCGGTTAGTGCTAG: 0.65 z-score
TCAAGAAAGAAAACGGGGAGGTGCTAG: -1.03 z-score
TTCGATATCGGGTTTCGATTAGTGCTA: 3.26 z-score
TTAGGTATCGACACTGAGTTAGTGCTA: -0.194 z-score
GCCGGACTGCTACTGCTGACGTGCTAG: -0.326 z-score
TTAGGTTTCGGGAGTGGGTTAGTGCTA: 2.37 z-score
TTGGGTATCGACTTTCGGTTAGTGCTA: 6.04 z-score
TTAGGTATCGATTATCGGTTAGTGCTA: 0.832 z-score
